Published values from different studies.
Lines come from different studies, so protocols differ.

The Cmax of CS(=O)(=O)Nc1ccc(C(=O)O[C@@H](Cc2c(Cl)c[n+]([O-])cc2Cl)c2ccc(OC(F)F)c(OCC3CC3)c2)cc1OCC1CC1 is reported as 0.547 ng/mL (human, plasma; inhaled, 1200 µg twice daily, day 1, multi-dose dry powder inhaler).
With CCCC[C@H](NC(C)=O)C(=O)N[C@H]1CCC(=O)NC[C@@H](C(=O)N[C@@H](Cc2c[nH]c3ccccc23)C(N)=O)NC(=O)[C@H](CCCNC(=N)N)NC(=O)[C@@H](Cc2ccccc2)NC(=O)[C@H](Cc2c[nH]cn2)NC1=O the Cmax was 1100 ng/mL (CD Sprague Dawley rat, male, plasma; subcutaneous, 5.0 mg/kg daily, day 14).
CC(C)NC[C@@H](C(=O)N1CCN(c2ncnc3c2[C@H](C)C[C@H]3O)CC1)c1ccc(Cl)cc1 has a Cmax of 62.6 ng/mL (human, normal hepatic function, plasma; oral, 100 mg single dose, reference group versus Mild; baseline: NCI classification).
For CO[C@H]1C[C@@H]2CC[C@@H](C)[C@@](O)(O2)C(=O)C(=O)N2CCCC[C@H]2C(=O)O[C@H]([C@H](C)C[C@@H]2CC[C@@H](O)[C@H](OC)C2)CC(=O)[C@H](C)/C=C(\C)[C@@H](O)[C@@H](OC)C(=O)[C@H](C)C[C@H](C)/C=C/C=C/C=C/1C, the Cmax was 68.5 ng/mL (human, whole blood; oral, 30 mg, without grapefruit juice).
CC1=C2C[C@H]3[C@@H](CC[C@@H]4C[C@H](NS(C)(=O)=O)CC[C@@]43C)[C@@H]2CC[C@@]2(C1)O[C@@H]1C[C@H](C)CN[C@H]1[C@H]2C gave a Cmax of 87.4 ng/mL (patients, plasma; oral, 160 mg single, day -7, cycle 1).
For Cc1cc(Nc2cc3ncccc3c(N[C@@H]3C[C@H]4CC[C@@H](C3)N4CCC#N)n2)n[nH]1, the Cmax was 7.37 ng/mL (beagle dog, female, plasma; oral, 10 mg/kg/day, last day of 13 weeks).
With CNCc1ccc(-c2[nH]c3cc(F)cc4c3c2CCNC4=O)cc1 the Cmax was 424 ng/mL (human, plasma; oral, 300 mg, fasted, median).
The Cmax of Cc1nc2cccc(OCC(C)(C)C(=O)NC(C)C)c2c(N)c1C(=O)O is reported as 268 ng/mL (female Sprague-Dawley rat, plasma; oral, 100 mg/kg, single dose).
CCc1c(-c2ccccc2)c(-c2ccccc2)nn1-c1ccccc1-c1cccc(OCC(=O)O)c1 has a Cmax of 1260 ng/mL (rat, plasma; oral, 10 mg/kg).

For quick reference, copied from above:
The Cmax of Cc1nc2cccc(OCC(C)(C)C(=O)NC(C)C)c2c(N)c1C(=O)O is reported as 268 ng/mL (female Sprague-Dawley rat, plasma; oral, 100 mg/kg, single dose).
